Earlier results as cited in several papers.
Each line is one published result; not all experiments were run side by side. Values after ≈ are worked out from the molar mass of the structure shown.
Organism: Staphylococcus aureus

SMILES | test | test system | conditions | quantity | value
NC(=O)c1c(F)ccc(OCc2nc3cc(Cl)cnc3s2)c1F |  |  |  | MIC | 1 µg/mL (≈ 2.81 µM)
O=C(COc1cccc2ccccc12)Nc1ccccc1[N+](=O)[O-] |  |  |  | MIC | 62.5 µg/mL (≈ 194 µM)
Cc1cccc2nc3c(O)c(Br)c(Cl)c(Br)c3nc12 |  | MRSA |  | MBEC | 2.35 µM
Nc1ncnc2c1ncn2[C@@H]1O[C@H](COS(=O)(=O)NC(=O)CCC(=O)c2ccccc2C(=O)O)[C@@H](O)[C@H]1O |  | MRSA ATCC BAA-1762 |  | MIC | 31.2 µg/mL (≈ 56.8 µM)
O=c1cc(-c2ccccc2)c2cc(Br)ccc2n1Cc1nnc2n1N=C(c1ccccc1)CS2 |  |  |  | MIC | 1 µg/mL (≈ 1.89 µM)
CC1=C(C(=O)NNC(N)=S)C(c2ccc(Cl)cc2)C(C(=O)NNC(N)=S)=C(C)N1 |  |  | concentration not given | inhibition zone diameter | 25 mm
CC(C)=CCc1cc2c(cc1O)OC[C@H]1c3ccc(O)c(CC=C(C)C)c3O[C@@H]21 |  | including MRSA |  | MIC | 0.78 to 1.56 µg/mL (≈ 1.99 to 3.97 µM)
CCc1nc(N)nc(N)c1C#CC(C)c1cc(-c2ccncc2)ccc1OC (racemic) |  |  |  | MIC | ≤ 0.625 µg/mL
NC(=O)c1c(F)ccc(OCc2nc3cc(Cl)cnc3s2)c1F |  | Smith, mouse, infection | subcutaneous, single dose | ED50 | 7 mg/kg
Oc1c(Br)cc(I)c2nc3cc(Cl)c(Cl)cc3nc12 |  | MRSA |  | MBEC | 6.25 µM
CCCCCCc1cc(-c2cc(Cl)sc2Cl)[nH]c(=O)c1C#N |  |  |  | MIC | 2.4 µg/mL (≈ 6.76 µM)
CC1=C[C@@H](C)[C@H]2[C@@H]3C(=O)C(Cl)(Cl)C(=O)[C@H](C)C(=O)O[C@@H](C)/C=C/C=C\[C@@H](C)[C@@H]3C=C[C@@H]2C1 |  |  |  | MIC | 0.006 µg/mL (≈ 0.0125 µM)
CCn1cc(C(=O)NCCNCCO)c(=O)c2cc(OCc3ccc(C(F)(F)F)cc3)c(Cl)cc21 | growth | MRSA ATCC 43300 |  | MIC | 16 µg/mL (≈ 31.3 µM)

Some of these lines once more:
SMILES | test | test system | conditions | quantity | value
CC1=C[C@@H](C)[C@H]2[C@@H]3C(=O)C(Cl)(Cl)C(=O)[C@H](C)C(=O)O[C@@H](C)/C=C/C=C\[C@@H](C)[C@@H]3C=C[C@@H]2C1 |  |  |  | MIC | 0.006 µg/mL (≈ 0.0125 µM)
NC(=O)c1c(F)ccc(OCc2nc3cc(Cl)cnc3s2)c1F |  |  |  | MIC | 1 µg/mL (≈ 2.81 µM)
